Published values collected from several papers.
Compare with care: the assays were run in different laboratories. ± marks the error that the study gave.
U2AF2: U2AF2 148-342 (Homo sapiens, UniProt P26368)
UniProt P26368, sequence (whole entry, looked up): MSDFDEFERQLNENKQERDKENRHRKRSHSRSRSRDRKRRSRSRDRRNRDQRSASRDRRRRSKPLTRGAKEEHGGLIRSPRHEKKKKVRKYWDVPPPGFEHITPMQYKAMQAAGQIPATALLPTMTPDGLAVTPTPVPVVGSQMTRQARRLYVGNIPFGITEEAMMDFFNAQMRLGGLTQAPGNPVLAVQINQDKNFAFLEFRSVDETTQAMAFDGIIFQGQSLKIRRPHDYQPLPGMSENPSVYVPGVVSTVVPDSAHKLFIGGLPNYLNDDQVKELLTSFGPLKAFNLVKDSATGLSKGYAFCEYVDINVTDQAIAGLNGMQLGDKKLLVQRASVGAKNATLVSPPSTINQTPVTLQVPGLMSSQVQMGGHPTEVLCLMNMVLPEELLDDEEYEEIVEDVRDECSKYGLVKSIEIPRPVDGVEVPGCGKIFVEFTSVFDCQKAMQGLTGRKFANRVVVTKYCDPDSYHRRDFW
PARP1 216-1014 del1-215: PARP1 216-1014 del1-215 (Homo sapiens, UniProt P09874)
UniProt P09874, sequence (whole entry, unmodified, looked up): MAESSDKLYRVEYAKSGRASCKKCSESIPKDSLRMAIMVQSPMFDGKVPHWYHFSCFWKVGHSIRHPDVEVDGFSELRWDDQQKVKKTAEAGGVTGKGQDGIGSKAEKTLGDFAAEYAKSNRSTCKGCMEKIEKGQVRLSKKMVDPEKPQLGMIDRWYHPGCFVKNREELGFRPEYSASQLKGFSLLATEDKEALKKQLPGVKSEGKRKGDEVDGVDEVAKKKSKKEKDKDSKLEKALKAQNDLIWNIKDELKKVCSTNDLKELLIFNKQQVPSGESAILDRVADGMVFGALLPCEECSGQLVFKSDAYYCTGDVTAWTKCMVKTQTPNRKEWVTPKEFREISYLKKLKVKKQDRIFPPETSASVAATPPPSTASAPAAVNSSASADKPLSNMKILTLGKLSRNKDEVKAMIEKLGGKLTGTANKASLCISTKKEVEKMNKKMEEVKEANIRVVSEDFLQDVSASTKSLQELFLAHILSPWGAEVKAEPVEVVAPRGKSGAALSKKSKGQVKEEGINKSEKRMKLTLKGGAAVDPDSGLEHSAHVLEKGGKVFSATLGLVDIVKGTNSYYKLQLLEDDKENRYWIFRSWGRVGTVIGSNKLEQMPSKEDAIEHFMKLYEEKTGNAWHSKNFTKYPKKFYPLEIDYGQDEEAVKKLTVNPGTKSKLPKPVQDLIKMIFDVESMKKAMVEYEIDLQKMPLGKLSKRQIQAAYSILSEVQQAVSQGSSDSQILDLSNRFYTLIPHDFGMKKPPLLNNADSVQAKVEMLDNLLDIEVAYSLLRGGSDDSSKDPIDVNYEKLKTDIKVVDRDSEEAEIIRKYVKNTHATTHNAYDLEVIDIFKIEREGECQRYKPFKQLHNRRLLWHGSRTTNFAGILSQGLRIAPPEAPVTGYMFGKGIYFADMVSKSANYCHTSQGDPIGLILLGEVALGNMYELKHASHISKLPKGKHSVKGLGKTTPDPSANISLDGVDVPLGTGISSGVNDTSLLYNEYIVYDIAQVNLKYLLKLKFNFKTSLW
SPT15 full length assumed: SPT15 full length assumed (Saccharomyces cerevisiae, UniProt P13393)
UniProt P13393, sequence (whole entry, looked up): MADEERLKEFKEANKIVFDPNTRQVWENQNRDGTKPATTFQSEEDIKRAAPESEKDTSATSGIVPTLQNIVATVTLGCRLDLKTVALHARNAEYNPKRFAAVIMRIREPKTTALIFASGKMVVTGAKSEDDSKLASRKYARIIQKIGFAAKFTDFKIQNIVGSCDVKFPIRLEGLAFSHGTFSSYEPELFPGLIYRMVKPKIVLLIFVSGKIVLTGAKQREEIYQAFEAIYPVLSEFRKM
CBF1 full length assumed: CBF1 full length assumed (Saccharomyces cerevisiae, UniProt P17106)
UniProt P17106, sequence (whole entry, looked up): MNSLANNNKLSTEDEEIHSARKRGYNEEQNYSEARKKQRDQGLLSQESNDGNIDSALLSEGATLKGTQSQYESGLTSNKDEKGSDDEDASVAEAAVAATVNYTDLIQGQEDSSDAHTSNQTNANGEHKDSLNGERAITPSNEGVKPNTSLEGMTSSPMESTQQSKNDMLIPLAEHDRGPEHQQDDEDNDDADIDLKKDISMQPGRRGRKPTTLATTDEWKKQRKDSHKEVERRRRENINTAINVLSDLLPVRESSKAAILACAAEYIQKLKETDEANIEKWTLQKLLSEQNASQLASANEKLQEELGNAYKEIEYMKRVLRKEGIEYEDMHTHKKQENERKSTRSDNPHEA
PHO4: PHO4 1-312 (Saccharomyces cerevisiae, UniProt P07270)
UniProt P07270, sequence (whole entry, looked up): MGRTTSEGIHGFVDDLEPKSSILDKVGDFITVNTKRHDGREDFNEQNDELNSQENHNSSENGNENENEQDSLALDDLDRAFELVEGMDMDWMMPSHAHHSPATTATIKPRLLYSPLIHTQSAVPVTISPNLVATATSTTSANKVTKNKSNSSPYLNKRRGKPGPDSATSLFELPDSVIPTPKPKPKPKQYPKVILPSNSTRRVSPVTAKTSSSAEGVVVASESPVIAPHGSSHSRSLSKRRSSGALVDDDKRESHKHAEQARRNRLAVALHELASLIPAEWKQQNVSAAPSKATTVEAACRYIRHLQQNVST
PHO4 full length assumed: PHO4 full length assumed (Saccharomyces cerevisiae, UniProt P07270)
nac full length assumed: nac full length assumed (Escherichia coli, UniProt Q47005)
UniProt Q47005, sequence (whole entry, looked up): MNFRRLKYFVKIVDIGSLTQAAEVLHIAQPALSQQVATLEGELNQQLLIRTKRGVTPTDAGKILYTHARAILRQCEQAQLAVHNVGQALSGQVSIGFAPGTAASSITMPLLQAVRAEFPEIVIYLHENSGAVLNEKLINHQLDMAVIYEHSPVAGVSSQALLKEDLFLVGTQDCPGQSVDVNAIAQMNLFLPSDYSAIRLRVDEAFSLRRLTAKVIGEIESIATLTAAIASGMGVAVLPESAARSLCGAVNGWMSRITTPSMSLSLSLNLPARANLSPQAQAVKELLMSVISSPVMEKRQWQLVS
CBF1: CBF1 1-351 (Saccharomyces cerevisiae, UniProt P17106)
glnG full length assumed: glnG full length assumed (Escherichia coli, UniProt P0AFB8)
UniProt P0AFB8, sequence (whole entry, looked up): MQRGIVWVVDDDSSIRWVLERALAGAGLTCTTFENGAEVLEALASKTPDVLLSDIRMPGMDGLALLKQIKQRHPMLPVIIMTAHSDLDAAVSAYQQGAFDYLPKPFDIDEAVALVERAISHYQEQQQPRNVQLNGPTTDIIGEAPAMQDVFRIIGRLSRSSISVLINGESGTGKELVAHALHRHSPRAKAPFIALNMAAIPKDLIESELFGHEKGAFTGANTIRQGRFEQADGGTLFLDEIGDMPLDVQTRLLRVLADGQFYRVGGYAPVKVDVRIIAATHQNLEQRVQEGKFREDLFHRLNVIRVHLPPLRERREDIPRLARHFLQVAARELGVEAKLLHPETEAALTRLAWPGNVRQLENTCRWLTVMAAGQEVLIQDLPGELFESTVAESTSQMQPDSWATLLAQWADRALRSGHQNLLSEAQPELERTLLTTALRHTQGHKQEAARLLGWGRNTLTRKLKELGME
T1: TOA1/TOA2 1-286; 1-122 (Saccharomyces cerevisiae); chain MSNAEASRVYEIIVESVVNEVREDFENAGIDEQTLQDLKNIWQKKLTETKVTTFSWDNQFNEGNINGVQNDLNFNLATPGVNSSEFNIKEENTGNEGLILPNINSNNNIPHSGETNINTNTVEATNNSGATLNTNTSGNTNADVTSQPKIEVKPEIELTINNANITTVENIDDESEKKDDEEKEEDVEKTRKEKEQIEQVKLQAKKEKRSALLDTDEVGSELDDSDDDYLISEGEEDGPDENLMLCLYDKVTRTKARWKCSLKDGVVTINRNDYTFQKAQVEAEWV; chain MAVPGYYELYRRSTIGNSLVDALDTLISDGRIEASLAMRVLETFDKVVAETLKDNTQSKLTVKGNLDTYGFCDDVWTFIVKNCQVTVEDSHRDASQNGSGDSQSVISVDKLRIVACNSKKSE
UniProt Q9BRS8, sequence (whole entry, unmodified, looked up): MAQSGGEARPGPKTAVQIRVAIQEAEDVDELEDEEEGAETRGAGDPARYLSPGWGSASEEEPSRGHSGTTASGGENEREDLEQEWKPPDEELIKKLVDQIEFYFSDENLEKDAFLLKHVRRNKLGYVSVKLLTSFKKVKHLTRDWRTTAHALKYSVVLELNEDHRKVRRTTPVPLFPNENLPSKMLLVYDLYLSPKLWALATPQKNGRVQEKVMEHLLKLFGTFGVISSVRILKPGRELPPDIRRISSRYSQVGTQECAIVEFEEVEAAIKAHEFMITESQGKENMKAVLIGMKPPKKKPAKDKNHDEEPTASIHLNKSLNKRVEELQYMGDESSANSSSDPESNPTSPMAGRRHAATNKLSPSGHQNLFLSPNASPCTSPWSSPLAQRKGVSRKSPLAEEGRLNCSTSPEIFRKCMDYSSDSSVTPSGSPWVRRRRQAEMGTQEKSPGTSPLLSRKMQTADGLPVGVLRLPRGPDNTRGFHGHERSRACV
UniProt Q07955, sequence (whole entry, looked up): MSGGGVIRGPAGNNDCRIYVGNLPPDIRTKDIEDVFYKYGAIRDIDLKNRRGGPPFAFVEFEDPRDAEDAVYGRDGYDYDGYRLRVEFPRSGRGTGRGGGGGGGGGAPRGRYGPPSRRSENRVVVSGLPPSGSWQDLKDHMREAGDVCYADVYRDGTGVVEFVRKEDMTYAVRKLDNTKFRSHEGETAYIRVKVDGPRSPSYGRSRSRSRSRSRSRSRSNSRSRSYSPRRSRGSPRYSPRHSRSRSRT
UniProt Q15020, sequence (whole entry, looked up): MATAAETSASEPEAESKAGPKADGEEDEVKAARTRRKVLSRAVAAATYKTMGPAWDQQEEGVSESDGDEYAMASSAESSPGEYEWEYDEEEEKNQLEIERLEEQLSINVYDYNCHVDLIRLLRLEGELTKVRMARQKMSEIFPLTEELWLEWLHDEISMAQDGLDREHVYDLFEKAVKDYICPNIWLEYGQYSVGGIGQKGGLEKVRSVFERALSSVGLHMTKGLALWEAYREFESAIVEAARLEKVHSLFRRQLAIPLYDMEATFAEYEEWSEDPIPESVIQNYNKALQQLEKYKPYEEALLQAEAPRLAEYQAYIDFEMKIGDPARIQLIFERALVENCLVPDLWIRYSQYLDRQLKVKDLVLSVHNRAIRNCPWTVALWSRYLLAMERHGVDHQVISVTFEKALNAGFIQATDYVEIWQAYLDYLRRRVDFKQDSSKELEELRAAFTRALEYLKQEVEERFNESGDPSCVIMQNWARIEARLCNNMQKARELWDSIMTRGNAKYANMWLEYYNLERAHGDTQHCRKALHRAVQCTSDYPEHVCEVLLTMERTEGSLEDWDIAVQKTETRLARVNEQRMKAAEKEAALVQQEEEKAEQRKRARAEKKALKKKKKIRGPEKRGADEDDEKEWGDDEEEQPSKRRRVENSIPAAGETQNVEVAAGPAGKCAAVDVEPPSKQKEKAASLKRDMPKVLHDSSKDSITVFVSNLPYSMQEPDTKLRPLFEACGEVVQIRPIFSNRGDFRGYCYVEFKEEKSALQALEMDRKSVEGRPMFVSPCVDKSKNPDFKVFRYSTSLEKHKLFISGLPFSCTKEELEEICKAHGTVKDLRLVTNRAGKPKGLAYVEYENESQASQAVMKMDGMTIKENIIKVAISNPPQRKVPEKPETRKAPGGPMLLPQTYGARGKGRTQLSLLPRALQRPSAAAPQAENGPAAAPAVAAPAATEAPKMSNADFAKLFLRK

Sequence | target | technique | molecule type | setting | with | Kd [µM]
UUAUUUAAU (ssRNA) | U2AF2 | sequencing of bound RNA | RNA | motif only |  | 16.2
CGGCAGGACGUACAUCCCUCCCGGCUCCCCUCCCGCUGGCCUGCCG (RNA; extended stem-loop) | PARP1 216-1014 del1-215 | fluorescence polarization | folded RNA | Hill coefficient 0.46 |  | 0.0038 ± 0.0008
DNA 1 TGAGGATGTATATATCTGAUGCGCCGGTGGAGC / DNA 2 GCTCCACCGGCGCGTACGATATATACATCCTCA (dsDNA; blunt, G-U mispair) | TDG 1-410 (Homo sapiens, UniProt Q13569) | EMSA | double-stranded DNA |  |  | 0.032
UCAACGACUCAACGAC (ssRNA) | ECD 1-644 (Homo sapiens, UniProt O95905) | FP | RNA |  |  | 4.7 ± 1.2
TATCACAGAAAAAAAGAAAATATAATAAATTAGTATCAAGTCAATCGGTCC (dsDNA; 5'-amino-C6 primer) | T1, TOA1/TOA2 1-286; 1-122 (Saccharomyces cerevisiae) | array | double-stranded DNA, one strand shown | TFIIA alone |  | 0.0473 ± 0.0147
UUUGAUUUU (ssRNA) | U2AF2 | sequencing of bound RNA | RNA | motif only |  | 4.28
GAUAAAGAUCAUGACAUCGACUACAAGGACGACGACGACAAGGUUGUGGAGCUGAUCGAGAAGCACCACCACCACCACCACAAAGUGGUGAUGAACUAA (RNA; predicted 2-5 helices) | FXR2 full length assumed (Homo sapiens, UniProt P51116) | fluorescence anisotropy | folded RNA |  | tRNA competitor | 0.78 ± 0.38
DNA 1 TGATTTCTTCGAAGAATATACTAAAAAATGAGCAGTCAATTCAATCGGTCC / DNA 2 GGACCGATTGACTTGACTGCTCATTTTTTAGTATATTCTTCGAAGAAATCA (dsDNA; 5'-amino-C6 primer) | SPT15 full length assumed | array | double-stranded DNA | TBP alone |  | 0.0154 ± 0.00083
CGCCATGTAGACATGTATACATGTCCACATGTCGACATGTCTACATGTGCACATGCTCCGGCGGTATGAC (dsDNA) | CBF1 full length assumed | MITOMI | double-stranded DNA, one strand shown | not purified |  | 0.13 ± 0.01
UAUUUUGUU (ssRNA) | U2AF2 | sequencing of bound RNA | RNA | motif only |  | 4.31
GGGTTGCGGCCGCTTGGG (dsDNA; blunt, 5'-phosphate) | PARP1 full length assumed (Homo sapiens, UniProt P09874) | stopped-flow fluorescence anisotropy | double-stranded DNA, one strand shown |  |  | 0.0037
CAATACACTGTTATCAGACACACGTGTCGCGCTACTCGTTCGGTTATCCGGCGGTATGAC (dsDNA) | PHO4 | MITOMI | double-stranded DNA, one strand shown | not purified |  | 0.143 ± 0.004
RNA 1 GCGGUGUAUAGCCUAAUCUUUACCGC / RNA 2 GCGGUAAAGAUUAGGCUAUACACCGC (dsRNA) | PARP1 1-1014 (Homo sapiens, UniProt P09874) | fluorescence polarization | double-stranded RNA | Hill coefficient 1.24 |  | 0.388 ± 0.036
CGCCACGTGGTGACGTGGTTACGTGTAGACGTGTATACGTGTCCACGTGTCGACGCTCCGGCGGTATGAC (dsDNA) | PHO4 full length assumed | MITOMI | double-stranded DNA, one strand shown | not purified |  | 0.064 ± 0.006
TTTGCGTGGGCTGTGGTGCTTT (ssDNA) | traI 309-569 (Escherichia coli, UniProt P14565) | fluorescence titration | single-stranded DNA |  |  | 1.6 ± 1.3
CUCUUUGGA (ssRNA) | U2AF2 | sequencing of bound RNA | RNA | motif only |  | 3.23
CATTCGCAACCTATAAGTAAATCCAATGGAACTCATCATAAATGAGACTTTTACCTTATGA (dsDNA) | nac full length assumed | BLI | double-stranded DNA, one strand shown |  |  | 0.00331
CAATACACTGTTATCAGACACACGTGTCGAACTACTCGTTCGGTTATCCGGCGGTATGAC (dsDNA) | CBF1 | MITOMI | double-stranded DNA, one strand shown | not purified |  | 0.153 ± 0.007
UUUUGAGGA (ssRNA) | SRSF1 1-248 (Homo sapiens, UniProt Q07955) | fluorescence polarization | RNA |  |  | 0.4 ± 0.02
GGTAACTTAGCGTCTCGTTGTGAGTATTTCTGACAAGGAATGGAATGCGATGCGCATAACG (dsDNA) | ulaR full length assumed (Escherichia coli, UniProt P0A9W0) | BLI | double-stranded DNA, one strand shown |  |  | 0.0488
CGCTGATCACGTGATGACGTGATTACGTGCAGACGTGCATACGTGCCCACGTGCCCTCCGGCGGTATGAC (dsDNA) | PHO4 full length assumed | MITOMI | double-stranded DNA, one strand shown | not purified |  | 0.034 ± 0.004
TCCTGAAGAGGCGCCCTAGCTTGGTCCTATCGTCGTCAAGTCAATCGGTCC (dsDNA; 5'-amino-C6 primer) | SUA7 full length assumed (Saccharomyces cerevisiae, UniProt P29055) | array | double-stranded DNA, one strand shown | TFIIB alone |  | 0.00523 ± 0.00094

Sequence | target | technique | molecule type | setting | with | Kd [µM]
ACAGGGGTGTGGGGACAGGGGTGTGGGG (G-quadruplex DNA (Homo sapiens); intramolecular G4) | IGF2 fragment (Homo sapiens) | SPR | folded DNA |  | IGF-2 100-750 nM | 0.03
CCUCUAGAA (ssRNA) | U2AF2 | sequencing of bound RNA | RNA | motif only |  | 3.91
AGATCTCCATCCTTGGGATATGGCTACCAGAAAGTAAAGGGACGATACAAGTCAAGTGAGA (dsDNA) | pdhR full length assumed (Escherichia coli, UniProt P0ACL9) | BLI | double-stranded DNA, one strand shown |  |  | 6.11
ACUUUUCAG (ssRNA) | U2AF2 | sequencing of bound RNA | RNA | motif only |  | 16.9
CGCAAAAACAACUAAAUCAAAACCAA (ssRNA; unstructured) | MECP2 1-486 (Homo sapiens, UniProt P51608) | fluorescence polarization | RNA | Hill coefficient 1.03 |  | 0.0393 ± 0.002
CGCGCGACCACGCTACCACGGCACCACGGGACCACGGTACCACGTCACCACGTGACTCCGGCGGTATGAC (dsDNA) | CBF1 full length assumed | MITOMI | double-stranded DNA, one strand shown | not purified |  | 0.033 ± 0.005
CAATACACTGTTATCGGACACACGTGTCGAGCTACTCGTTCGGTTATCCGGCGGTATGAC (dsDNA) | PHO4 | MITOMI | double-stranded DNA, one strand shown | not purified |  | 0.139 ± 0.003
CCATCGCTACC (dsDNA; blunt, trans-N2-BPDE-dG at position 6) | HMGB3 full length assumed (Homo sapiens, UniProt O15347) | fluorescence anisotropy | double-stranded DNA, one strand shown |  |  | 0.00035 ± 5e-05
TCCTGAAGGAGCGCCCTAGCTTGGTCCTATCGTCGTCAAGTCAATCGGTCC (dsDNA; 5'-amino-C6 primer) | SPT15 full length assumed | array | double-stranded DNA, one strand shown | TBP alone |  | 0.0177 ± 0.00099
TTGACAAAATTTGAAAGTTGGAAAAATTTTCCAATAAATAGAGGTAGGAATAAAATGGCAA (dsDNA) | glnG full length assumed | BLI | double-stranded DNA, one strand shown |  |  | 13
CAATACACTGTTATCAGACACACGTGCCGAGCTACTCGTTCGGTTATCCGGCGGTATGAC (dsDNA) | PHO4 | MITOMI | double-stranded DNA, one strand shown | not purified |  | 0.074 ± 0.002
TCCTGAAGGGGCGCACTAGCTTGGTCCTATCGTCGTCAAGTCAATCGGTCC (dsDNA; 5'-amino-C6 primer) | SPT15 full length assumed | array | double-stranded DNA, one strand shown | TBP alone |  | 0.003 ± 0.00031
AACUUAUAU (ssRNA) | U2AF2 | sequencing of bound RNA | RNA | motif only |  | 3.81
CTCAGGAATTCCTAGAAAGTAATGTGGAGCTCAGTTCAAGTCAATCGGTCC (dsDNA; 5'-amino-C6 primer) | SPT15 full length assumed | array | double-stranded DNA, one strand shown | TBP alone |  | 0.00096 ± 8e-05
CAATACACTGTTATCAGCCACACGTGTCGAGCTACTCGTTCGGTTATCCGGCGGTATGAC (dsDNA) | CBF1 | MITOMI | double-stranded DNA, one strand shown | not purified |  | 0.25 ± 0.015
GTAAAGTAGGAACGGTATTAATAGAAATGATACTAAAGTACGAAATAATAAACTGGAATTT (dsDNA) | nac full length assumed | BLI | double-stranded DNA, one strand shown |  |  | 0.00668
CAATACACTGTTATCAGACACACGTGTGGAGCTACTCGTTCGGTTATCCGGCGGTATGAC (dsDNA) | CBF1 | MITOMI | double-stranded DNA, one strand shown | not purified |  | 0.387 ± 0.022
GGCAAGGAGUCUGCACUUCGGUGCUCAGCUUUGCC (RNA; hairpin, internal loop, tetraloop) | LARP6 73-183 G74C/R165A (Homo sapiens, UniProt Q9BRS8) | MST | folded RNA |  |  | 0.0158 ± 0.00132
RNA 1 CGGCAGGACGUACAUCCCUCCCGGCUCCCCUCCCGCUGGCCUGCCG / RNA 2 CGGCAGGCCAGCGGGAGGGGAGCCGGGAGGGAUGUACGUCCUGCCG (dsRNA) | PARP1 216-1014 del1-215 | fluorescence polarization | double-stranded RNA | Hill coefficient 0.59 |  | 0.0518 ± 0.0054
CAATACACTGTTATCAGGCACACGTGTCGAGCTACTCGTTCGGTTATCCGGCGGTATGAC (dsDNA) | PHO4 | MITOMI | double-stranded DNA, one strand shown | not purified |  | 0.135 ± 0.003
GAUACAGAG (ssRNA) | SART3 697-786 (Homo sapiens, UniProt Q15020) | ITC | RNA |  |  | 1.8 ± 0.4
GCCCTGACTTTGGGCAGCAATGCTTCAAGTTGGGGCGCTAAAATGGGGCATTGTTTGACGT (dsDNA) | glnG full length assumed | BLI | double-stranded DNA, one strand shown |  |  | 0.0414

Repeated from above:
Sequence | target | technique | molecule type | setting | with | Kd [µM]
CGCCATGTAGACATGTATACATGTCCACATGTCGACATGTCTACATGTGCACATGCTCCGGCGGTATGAC (dsDNA) | CBF1 full length assumed | MITOMI | double-stranded DNA, one strand shown | not purified |  | 0.13 ± 0.01
UAUUUUGUU (ssRNA) | U2AF2 | sequencing of bound RNA | RNA | motif only |  | 4.31
GGGTTGCGGCCGCTTGGG (dsDNA; blunt, 5'-phosphate) | PARP1 full length assumed (Homo sapiens, UniProt P09874) | stopped-flow fluorescence anisotropy | double-stranded DNA, one strand shown |  |  | 0.0037
CAATACACTGTTATCAGACACACGTGTCGCGCTACTCGTTCGGTTATCCGGCGGTATGAC (dsDNA) | PHO4 | MITOMI | double-stranded DNA, one strand shown | not purified |  | 0.143 ± 0.004
RNA 1 GCGGUGUAUAGCCUAAUCUUUACCGC / RNA 2 GCGGUAAAGAUUAGGCUAUACACCGC (dsRNA) | PARP1 1-1014 (Homo sapiens, UniProt P09874) | fluorescence polarization | double-stranded RNA | Hill coefficient 1.24 |  | 0.388 ± 0.036
CGCCACGTGGTGACGTGGTTACGTGTAGACGTGTATACGTGTCCACGTGTCGACGCTCCGGCGGTATGAC (dsDNA) | PHO4 full length assumed | MITOMI | double-stranded DNA, one strand shown | not purified |  | 0.064 ± 0.006
TTTGCGTGGGCTGTGGTGCTTT (ssDNA) | traI 309-569 (Escherichia coli, UniProt P14565) | fluorescence titration | single-stranded DNA |  |  | 1.6 ± 1.3
